Results of several laboratories.
Compare with care: the assays were run in different laboratories. Several values in a cell are separate wells, animals, samples, runs or records. ± gives the spread as reported.

[177Lu+3].[Cl-].[Cl-].[Cl-] gave a live cells of 79.2% (4T1; flow cytometry; 0.4 Bq/cell, 24 h).
The inhibition of CC(C)(COP(=O)(O)OP(=O)(O)OC[C@H]1O[C@@H](n2cnc3c(N)ncnc32)[C@H](O)[C@@H]1OP(=O)(O)O)[C@@H](O)C(=O)NCCC(=O)NCCSCCC(=O)N[C@@H](CO)C(=O)NCC(=O)N[C@@H](CCCNC(=N)N)C(=O)NCC(=O)N[C@@H](CCCCN)C(=O)NCCCC[C@H](NC(=O)CC[C@@H]1NC(=O)[C@@H](CCCNC(=N)N)NC(=O)[C@H](CCCNC(=N)N)NC(=O)[C@@H](CCCNC(=N)N)NC(=O)[C@H](CCCNC(=N)N)NC(=O)[C@H](Cc2csc3ccccc23)NC(=O)[C@@H](Cc2ccccc2)NC(=O)[C@H](Cc2ccccc2)NC1=O)C(N)=O is reported as roughly 40% (A549; N-cadherin expression, Western blot; 10 µM, 2 days).
For NC(=O)c1ccc(-c2ccccc2Cl)c2c3c([nH]c12)CC[C@@H](N)C3, the IC50 was 16.9 nM (Ramos; cell growth or viability).
For Cc1cc(/C=C/c2ccc(O)c(O)c2)[nH]n1, “cells in pre-G1 phase” read 5.02% (A549; PI staining flow cytometry; 50 µM, 48 h).
The GI50 of CCN(C(=O)c1cc(F)ccc1Oc1nncnc1N1CCC2(C1)CN([C@H](CCCN(C)CCOC)C(C)C)C2)C(C)C is reported as greater than 10000 nM (Caco-2; cell growth or viability; 7 days).
With COc1ccccc1-c1ccncc1C(=O)Nc1nnc(OCc2ccc(Cl)cc2)s1 the colony survival was 54.1% (MDA-MB-436 (BRCA1 mutant); colony formation; 0.75 µM; reference: untreated control).
For CC(=O)OC[C@H]1O[C@@H](n2cc(CSc3nc4ccccc4n3Cc3cn([C@@H]4O[C@H](COC(C)=O)[C@@H](OC(C)=O)C(OC(C)=O)[C@H]4OC(C)=O)nn3)nn2)[C@H](OC(C)=O)C(OC(C)=O)[C@@H]1OC(C)=O (stereo in doubt), the cytotoxicity was 64.5% (Caco-2; MTT; 7.81 ppm).
CCOc1cncc(-c2ccc(NC(=O)C3(c4ccnc(NS(=O)(=O)C5CC5)n4)CCOCC3)nc2)n1 has an IC50 of 1380 nM (NCI-H322M; cell growth or viability, ATP luminescence; 72 h).
For CC(C)(C)c1cc(-c2ccc3cc4ccccc4nc3n2)nc(-c2ccc3cc4ccccc4nc3n2)c1.[Cl-].[Cl-].[Ru+2].c1ccc2cc3nc4c5cccnc5c5ncccc5c4nc3cc2c1, the EC50 was 15.6 µM (A-375; resazurin; together with: light 523 nm, 20 mW, 100 J/cm2).
O=C(Nc1ccc(Sc2ccc3c(/C=C/c4ccccn4)n[nH]c3c2)cc1)Nc1ccc(F)c(F)c1 has a GI50 of 1020 nM (Ba/F3 TEL-VEGFR1; cell growth, CCK-8).
Cc1ncsc1-c1ccc(C(C)NC(=O)C2CC(O)CN2C(=O)C(NC(=O)CCCCCCCCCCN2CCCC(Nc3ncc(Cl)c(Nc4ccccc4S(=O)(=O)C(C)C)n3)C2)C(C)(C)C)cc1 (stereo not drawn) — result for “log2 fold change”: -1.13 (22Rv1; RNA-seq, item: ZNF605 mRNA; concentration not given; reference: DMSO).
For CC(C)(C)c1nc(-c2cccc(NS(=O)(=O)c3c(F)cccc3F)c2F)c(-c2ccnc(N)n2)s1.Cc1[nH]c2ccccc2c1CCNCc1ccc(/C=C/C(=O)NO)cc1, “early apoptotic cells” read 22.4 ± 4.3% (C13; annexin V/PI flow cytometry; concentration not given, 48 h; reference: untreated).
The EC50 of CC(C)(C)c1cc(-c2ccc3cccnc3n2)nc(-c2ccc3cccnc3n2)c1.[Cl-].[Cl-].[Ru+2].c1cnc2c(c1)ccc1cccnc12 is reported as 292 ± 9 µM (A-375; cytotoxicity, resazurin; dark).
For CCCNC(=O)[C@H]1O[C@@H]1C(=O)N[C@H](C(=O)N1CCC[C@H]1C(=O)OCC1=C2C(C)=CC(C)=[N+]2[B-](C)(C)n2c(C)cc(C)c21)[C@@H](C)CC, the EC50 was 10.3 ± 2 µM (MCF-10A; cell viability, MTT; concentration not given, 4 h, irradiated 15 min up to 470 nm).
CC(=O)NCCCN(C)CCCNc1cccc2c1C(=O)c1cccc(NCCCN(C)CCCNC(C)=O)c1C2=O — result for “log2 fold change”: -0.313 (SAS; RNA-Seq, item: SYNGR2 mRNA; 1 µM, 24 h; reference: untreated cells).
CN(C)c1ccc(-n2cc(COC(=O)[C@@]3(C)C=C(C(=O)OC(C)(C)C)C(=O)CC3)nn2)cc1: “luminescence relative to PMA” 0.973 (AP-1 reporter HEK293; AP-1 reporter gene, luciferase reporter; 1 µM, 6 h, together with: PMA 6 ng/mL; reference: PMA alone).
The IC50 of CC(C)c1ccc(N(C)c2ccc3c(c2)OCC[C@H]3CNc2cnccc2C(=O)O)cc1 is reported as no less than 10000 nM (HCC1428; cell viability, CellTiter-Glo; 7 days).
For Cc1ccncc1.[Cl-].[Cl-].[Ru+2].c1cc(-c2ccc3cccnc3n2)nc(-c2ccc3cccnc3n2)c1.c1ccc2cc3nc4c5cccnc5c5ncccc5c4nc3cc2c1, the phototoxicity index was 42 (A-375; resazurin; together with: light 523 nm, 100 J/cm2; reference: dark EC50 over light EC50).
CCc1c(-c2ccc3[nH]ncc3c2)cnc(N)c1-c1ccc(O)cc1 has a viability of 102% (CHP-212; cell growth or viability, SRB; 0.1953 µM).
Cn1ncc2cc(-c3cncc(Cl)c3N3CCC4(CCNC4=O)CC3)ccc21 — result for “log2 fold change”: 1.05 (LS174T; gene expression, microarray, item: NOD2 mRNA; concentration not given, 4 h; reference: untreated cells).
For O=C(CCCCCOc1ccc2ccccc2c1)N[C@@H](CO)C[C@@H](O)c1ccc(-c2ccccc2)cc1, the sphingomyelin level was 619000 pmol/sample and 667000 pmol/sample and 673000 pmol/sample (HeLa; CERT activity, HPLC-MS/MS lipidomics, item: sphingomyelin 16; 1 µM, 24 h, not cell-number normalised).
COC(=O)c1cc(NC2=NC(=O)C(=Cc3ccc(C)cc3)S2)ccc1OC(C)=O has a metabolite level of -0.13 fold change (MCF7; GC-MS, item: Dl-Phenylalanine; 1 µM; reference: DMSO).
Under “cell growth and viability”, C=Cc1c(C)c2cc3nc(c(CC(=O)[O-])c4[n-]c(cc5nc(cc1[n-]2)C(C)=C5CC)c(C)c4C(=O)[O-])C(CCC(=O)[O-])C3C.[Cu+2].[Na+].[Na+].[Na+] (stereo not drawn) is recorded as “decreased” (mouse breast cancer 4 T1 cells; IncuCyte; 5 to 50 µM, up to 120 h).
CCN(CC)CC(=O)Nc1cccc(-n2cc(-c3ccc4ccc(-c5cn(-c6cccc(NC(=O)CN(CC)CC)c6)nn5)cc4c3)nn2)c1 has a fold regulation of -1.5 (RCC4; PCR angiogenesis array, item: NOTCH4; 5 x IC50, 6 h, normoxia; reference: untreated).
Under “log2 fold change”, O=C1CC[C@H](N2Cc3cc(-c4ccn5ncc(Cl)c5n4)ccc3C2=O)C(=O)N1 is recorded as -3.3 (MOLM-13; RNA-seq, item: MCM4 mRNA; 200 nM, 24 h; reference: DMSO).
The resistance factor of Cc1cc(Cl)cc(-c2ccnc3cc(CN4C(=O)C5C(C4=O)C5(C)C)sc23)c1C[C@@H]1CNCCO1 (stereo partly drawn) is reported as 14.9 (CAPAN-1 resistant to compound; SRB viability; reference: IC50 resistant over parental).
Under “SILAC ratio per peptide”, O=C(N1CCCC1)n1cc(-c2ccc(-c3ccccc3)cc2)nn1 is recorded as 1.23 and 0.88 and 0.85 (mouse T cells; N-terminal labelling proteomics, item: Fbxo7 N-terminal peptide; 0.001 µM, 6 h; reference: DMSO).
Cc1cc(C)nc(SCC(=O)Nc2ncc(Cc3cccc4ccccc34)s2)n1 has an inhibition of 4.3 ± 0.4% (PC-3M-luc; colony formation, colony forming; 25 µM).
With COC(=O)c1cc(NC2=NC(=O)C(=Cc3ccc(N(C)C)cc3)S2)ccc1OC(C)=O the fold change was 0.525 (MCF7; item: CHAF1B mRNA; 0.81 µM (IC50), 24 h; reference: DMSO).
For Oc1cccc(-c2cccc(O)n2)n1.[Cl-].[Cl-].[Ru+2].c1ccc(-c2ccnc3c2ccc2c(-c4ccccc4)ccnc23)cc1.c1ccc(-c2ccnc3c2ccc2c(-c4ccccc4)ccnc23)cc1, the phototoxicity index was 130 (MCF-10A; cell viability; reference: dark EC50 over light EC50).
For Cn1ncc(-c2ccc3c(=O)[nH]nc(CN)c3c2)c1-c1c(F)c(Cl)cc(OC2CC2)c1C#N, the IC50 was 60 nM (EOL1; cell viability, inhibitor, CellTiter-Glo; 120 h, baseline-subtracted).
CN1CCCNC(=O)c2cccc(c2)C(=O)NCCCN(C)CCCNc2cccc3c2C(=O)c2cccc(c2C3=O)NCCC1 — result for “log2 fold change”: -1.27 (SAS; RNA-Seq, item: MAP3K7 mRNA; 1 µM, 6 h; reference: untreated cells).
The IC50 of CNS(=O)(=O)Nc1nccc(Cc2c(C)c3ccc(Oc4ncccc4F)cc3oc2=O)c1F is reported as greater than 1000 nM (Hs 695T; cell viability; 7 days).
With Cc1cc(C)nc(SCC(=O)Nc2ncc(Cc3cccc(OCc4cn(Cc5ccc(C#N)cc5)nn4)c3)s2)n1 the inhibition was 50.1 ± 4.8% (PC-3M-luc; colony formation, colony forming; 25 µM).
For C=C1CC2(C(=O)OC)C=C(C(=O)OC(C)(C)C)C(=O)C1C2 (stereo not drawn), the luminescence was 3450 a.u. (AP-1 reporter HEK293; AP-1 reporter gene, luciferase reporter; 10 µM, 6 h, together with: PMA 6 ng/mL; higher = more transcription).
With CO[C@@H]1[C@@H](OC(N)=O)[C@@H](O)[C@H](Oc2ccc3c(O)c(NC(=O)c4ccc(O)c(CC=C(C)C)c4)c(=O)oc3c2C)OC1(C)C the colony count was 62 (DLD-1 parental; 75 µM, replicate 2).

Excerpt of the above:
CCc1c(-c2ccc3[nH]ncc3c2)cnc(N)c1-c1ccc(O)cc1 has a viability of 102% (CHP-212; cell growth or viability, SRB; 0.1953 µM).
The IC50 of CNS(=O)(=O)Nc1nccc(Cc2c(C)c3ccc(Oc4ncccc4F)cc3oc2=O)c1F is reported as greater than 1000 nM (Hs 695T; cell viability; 7 days).
For O=C(CCCCCOc1ccc2ccccc2c1)N[C@@H](CO)C[C@@H](O)c1ccc(-c2ccccc2)cc1, the sphingomyelin level was 619000 pmol/sample and 667000 pmol/sample and 673000 pmol/sample (HeLa; CERT activity, HPLC-MS/MS lipidomics, item: sphingomyelin 16; 1 µM, 24 h, not cell-number normalised).
CCN(CC)CC(=O)Nc1cccc(-n2cc(-c3ccc4ccc(-c5cn(-c6cccc(NC(=O)CN(CC)CC)c6)nn5)cc4c3)nn2)c1 has a fold regulation of -1.5 (RCC4; PCR angiogenesis array, item: NOTCH4; 5 x IC50, 6 h, normoxia; reference: untreated).
The resistance factor of Cc1cc(Cl)cc(-c2ccnc3cc(CN4C(=O)C5C(C4=O)C5(C)C)sc23)c1C[C@@H]1CNCCO1 (stereo partly drawn) is reported as 14.9 (CAPAN-1 resistant to compound; SRB viability; reference: IC50 resistant over parental).
